Measured values gathered from unrelated publications.
Parts stem from different laboratories: compare values within a part only. Substitutions count along the parent as printed.

Sample 1 — target: UBE2J1 UBC core domain (UniProt Q9Y385); technique: yeast two-hybrid; medium: yeast; setting: mostly zero background; reference: not given; direction: higher = stronger interaction
B1: RNF208 RING domain (UniProt Q9H0X6); chain SSAAAGEPLECPTCGHSYNVTQRRPRVLSCLHSVCEQCLQILYESCPKYKFISCPTCRRETVLFTDYG
B2: MKRN1 RING domain (UniProt Q9UHC7); chain FAVQRSKDMVCGICMEVVYEKANPSERRFGILSNCNHTYCLKCIRKWRSAKQFESKIIKSCPECRITSNFVIPSE
B3: RNF38 RING domain (UniProt Q9H0F5); chain PNNHQSEQTLCVVCMCDFESRQLLRVLPCNHEFHAKCVDKWLKANRTCPICRADASEVHRDS
B4: RNF111 RING domain (UniProt Q6ZNA4); chain EGTEEDTEEKCTICLSILEEGEDVRRLPCMHLFHQVCVDQWLITNKKCPICRVDIEAQLPSE
B5: RC3H1 RING domain (UniProt Q5TC82); chain QAPQWTDFLSCPICTQTFDETIRKPISLGCGHTVCKMCLNKLHRKACPFDQTTINTDIELL
B6: TRIM4 RING domain (UniProt Q9C037); chain EAEDIQEELTCPICLDYFQDPVSIECGHNFCRGCLHRNWAPGGGPFPCPECRHPSAPAALRP
B7: TRIM40 RING domain (UniProt Q6P9F5); chain LQKDNQEEGVCPICQESLKEAVSTNCGHLFCRVCLTQHVEKASASGVFCCPLCRKPCSEEVLG
B8: NEURL1 RING domain (UniProt O76050); chain VTPGLGQWSDECTICYEHAVDTVIYTCGHMCLCYACGLRLKKALHACCPICRRPIKDIIKT
Construct (chain): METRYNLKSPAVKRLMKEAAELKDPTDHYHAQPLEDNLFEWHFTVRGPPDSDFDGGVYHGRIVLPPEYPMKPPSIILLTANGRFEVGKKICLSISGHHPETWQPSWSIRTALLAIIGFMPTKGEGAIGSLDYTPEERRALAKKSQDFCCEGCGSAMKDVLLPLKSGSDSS
Molecule	lacZ reporter activity
B1 (RNF208 RING domain)	0
B2 (MKRN1 RING domain)	0
B3 (RNF38 RING domain)	0
B4 (RNF111 RING domain)	0
B5 (RC3H1 RING domain)	0
B6 (TRIM4 RING domain)	0
ASLPTSEEDLCPICYAHPISAVFQPCGHKSCKACINQHLMNNKDCFFCKTTIVSVEDWE (RNF123 RING domain (UniProt Q5XPI4))	0
PAELEVQASECVVCLEREAQMIFLNCGHVCCCQQCCQPLRTCPLCRQDIAQRLRIY (LRSAM1 RING domain (UniProt Q6UWE0))	0
B7 (TRIM40 RING domain)	0
QVDKAVFHMQSVKCLKCQEQKRAVLPCQHAALCELCAEGSECPICQPGRAHTLQS (UNK RING domain (UniProt Q9C0B0))	0
GAAPGPEAAECLVCSELALLVLFSPCQHRTVCEECARRMKKCIRCQVVVSKKLRPD (MIB2 RING domain (UniProt Q96AX9))	0
B8 (NEURL1 RING domain)	0

Sample 2 — technique: protein-binding microarray; form: double-stranded DNA, one strand shown; medium: in vitro; concentration: not given; direction: higher = stronger binding
Target: Hepatocyte nuclear factor 3-beta, forkhead domain (FOXA2, Homo sapiens, UniProt Q9Y261, residues 142-269)
Setting: k-mer, scored over probes, only values ≥0.25
Construct (chain): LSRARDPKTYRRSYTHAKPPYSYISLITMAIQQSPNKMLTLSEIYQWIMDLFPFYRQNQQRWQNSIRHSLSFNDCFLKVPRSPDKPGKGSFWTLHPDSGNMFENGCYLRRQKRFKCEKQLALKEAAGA
Oligonucleotide	E-score
ATACAGAC	0.359
ATGTCATA	0.302
AAGATATA	0.323
CAAATGTA	0.278
GAAATATA	0.287
CTTTAATA	0.299
ATTAAATG	0.301
CACATATC	0.338
AAATCAAT	0.27
TGTATACA	0.402
TACGGTAA	0.297
ATATATGA	0.36
AAATACAC	0.325
AGTATATA	0.363
ATTGATAG	0.287
TGTTGAAA	0.282
ACATATAC	0.408
AATATAGA	0.299
ATCAATAA	0.289
GATATATA	0.375
ATTGTGTA	0.325
ATAACCAA	0.328

Sample 3 — technique: DHFR PCA, deep sequencing; medium: yeast; added: (+)-ABA 0.11 µM; reference: wild-type fitted maximum; direction: higher = stronger binding
Target: ABI1, truncated, D143A, DHFR fusion (Arabidopsis thaliana)
Setting: methotrexate growth selection, single substitutions
Starting sequence: PYL1, truncated, DHFR fusion (Arabidopsis thaliana); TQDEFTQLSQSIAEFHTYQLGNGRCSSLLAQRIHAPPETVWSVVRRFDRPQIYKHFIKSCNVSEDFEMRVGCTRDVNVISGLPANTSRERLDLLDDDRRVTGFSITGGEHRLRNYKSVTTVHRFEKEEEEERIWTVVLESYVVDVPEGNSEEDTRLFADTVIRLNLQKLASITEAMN; partner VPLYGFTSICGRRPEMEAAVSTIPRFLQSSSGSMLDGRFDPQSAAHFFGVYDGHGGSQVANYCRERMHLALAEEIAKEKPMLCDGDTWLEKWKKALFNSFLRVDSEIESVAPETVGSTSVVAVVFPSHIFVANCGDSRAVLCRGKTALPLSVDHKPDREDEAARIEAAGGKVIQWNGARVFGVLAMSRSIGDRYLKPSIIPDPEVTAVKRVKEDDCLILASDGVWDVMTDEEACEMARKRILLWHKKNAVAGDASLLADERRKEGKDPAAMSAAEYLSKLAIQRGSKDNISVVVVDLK
Change	relative binding score [%]
S150F	-12.9
T1V	45.1
Q2A	48.3
Y115N	1.27
L82S	6.88
E139L	1.17
N61I	52.2
A170W	-7.22
A35N	-2.55
S87N	2.24
E152M	7.86
S104C	2.15
N165L	6.81
P83V	2.07

Sample 4 — target: CCNE1, cyclin fold, Cln2 fusion (human); technique: yeast growth competition, sequencing; medium: yeast; setting: strong parent motif; reference: not given; direction: higher = stronger binding
Starting sequence: INSM1 docking peptide (human); PKAIRKLHFEDEV
Change	normalised enrichment score
PKKIRKLHFEDEV [A3K]	0.699
PKAIVKLHFEDEV [R5V]	0.262
PKAIRKLHFEEEV [D11E]	4.64
PKAILKLHFEDEV [R5L]	0.466
PKACRKLHFEDEV [I4C]	5.88
PKAIRKTHFEDEV [L7T]	-0.0313
PKAIRKLHQEDEV [F9Q]	-0.0988
PKFIRKLHFEDEV [A3F]	2.62
PKAIRHLHFEDEV [K6H]	2.03
PKAIRKVHFEDEV [L7V]	0.504
PKAIRKLHFDDEV [E10D]	4.65
PKNIRKLHFEDEV [A3N]	0.182
PKAIRKLHFECEV [D11C]	3.59
PHAIRKLHFEDEV [K2H]	4.63
PKATRKLHFEDEV [I4T]	1.78
PKAIRKLLFEDEV [H8L]	5.27
PKAIEKLHFEDEV [R5E]	0.184
PKAIRKLHYEDEV [F9Y]	0.897
PSAIRKLHFEDEV [K2S]	5.12

Sample 5 — technique: universal PBM; form: double-stranded DNA, one strand shown; medium: in vitro; concentration: not given; direction: higher = stronger binding
Target: Sal-like protein 4, full length isoform B (SALL4, Homo sapiens, UniProt Q9UJQ4-2, residues 1-616)
Setting: 8-mer, flanks averaged, mean of replicates
Oligonucleotide	E-score
AGCGGGTC	-0.324
CTCTTAAG	0.0458
TACGCCTA	0.0961
ATCGACGG	-0.188
CATTGATC	0.0385
AGTGAATA	0.197
ATAATGGG	0.284
AGTCCAGC	-0.262
CGCCGCAC	-0.306
CCGGCGTC	-0.278
GATAGGAA	0.0476
TCATTACA	0.276
CTTCGTGC	-0.22
CCGCGTGA	-0.0934
GAAAGTGA	0.0925
AGCCACAG	-0.196
CGTCGAGA	-0.102
AGAAGACT	0.0132
AGATCTTG	0.023
ATCGGGAA	-0.158
CAAGATCC	-0.00313
CATTGCCC	-0.231
AAATGAAC	0.217
ACTTGACC	-0.0482

Sample 6 — technique: RNA Bind-n-Seq; form: RNA; medium: in vitro; concentration: 365 nM; reference: no-protein control; direction: higher = stronger binding
Target: RNA binding protein fox-1 homolog 2, RRM domain, GST-SBP tag (RBFOX2, Homo sapiens, UniProt O43251-10, residues 100-194)
Setting: natural RNA segment, single round, ends assumed
Construct (chain): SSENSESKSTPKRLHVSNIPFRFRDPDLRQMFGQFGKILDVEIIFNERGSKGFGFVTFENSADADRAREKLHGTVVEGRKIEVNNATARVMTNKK
Oligonucleotide	RBNS enrichment (R)
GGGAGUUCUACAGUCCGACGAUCGCCCCAGCCCCACCUGACUCCAGCACACCUGGCGAGUAGUAGCUGUCAAUAAAUCUAUGGUAAACAGCAAGAGGUUAGUAAGUAUUCUUUUAUUGUGACAAACCCUCUCCUGGAAUUCUCGGGUGCCAA	0.74
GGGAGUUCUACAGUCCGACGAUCUGUAUUUCCCCCUUUCCACUGGGCCCUUCCAACACAAUGAAUGAAGGAAAUAUCAUUUAUUUAAGCAGCCUAUCAGUGAUUGCCAUUAGACUGUUGAAUACUGUUACUUUUGGAAUUCUCGGGUGCCAA	0.384
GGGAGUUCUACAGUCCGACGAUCGUAGACAUAAAGACUUGAUUGCUUUCCAGUUUAAUGAAAGCUUAAAUGUCCCUGCGAACCCACAAUCUCUGCCAGCAGAACUGGUUUUGUUCUGAAUAGUACAGAUUGAUUGGAAUUCUCGGGUGCCAA	0.288
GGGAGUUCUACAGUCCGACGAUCACUUCUUGAUUGUCGAUCUCUGUCACAUCCGAUGAUUGUUUUGGUUUCUAUUCCCUUUCUAACUGCCCAUCGGGCUCAGAACCCCAAUAAUCCCUUCCUUUCACUAUCUUUGGAAUUCUCGGGUGCCAA	0.393
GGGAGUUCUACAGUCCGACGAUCCAAUAAUUUUAAGGUUCUGUUUUAAAUGUAAGAAUUCCAACUUACAGUCUAUUAAAAUUCAGCCCUAAAAUGACAAAGCCUUCUUAAAGCCUUAUUUUUAAAAUCCCCCAUGGAAUUCUCGGGUGCCAA	0.485
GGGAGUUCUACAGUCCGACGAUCUCAGUGCUCUCUAUUGAUGUUCUUGCUGGUCUCCAGACACAUUCCUGUUGCAUUAAGACUUGAAAGACUUGUAGAUGUGUGAUGUUCAGGCACAGGAUGCUGAAAGCUAUUGGAAUUCUCGGGUGCCAA	1.4
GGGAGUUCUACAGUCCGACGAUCUCCCACCCUCAGUCCCCAUGUUAGUCUUGGUUGUGCCUGUCUUUAACCACAGCCUCACAGCUGGUCUCUGGCAGUGGUUAGGACAGGCGGGAGCAACCACAAUCAAACCUUGGAAUUCUCGGGUGCCAA	0.227
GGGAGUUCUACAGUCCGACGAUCGAGCCAGCUAGGGCAGGAGUUGGGGAAAGACGCGCAGAAAGGCAAGCCCGAGUCAGGGCACUUGUUAUUUAAAUGUGCCAUUUCCCAGGUUGCCACCCUUCAUAGAGUUUUGGAAUUCUCGGGUGCCAA	0.402
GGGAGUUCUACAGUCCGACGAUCUGGGGCACCCGGAUCCCAGCAGCCUGGUUGCCUGCCUGUAGGAUGUCUUACAGGAGUUUGCAGAGAAACCUUCCUUGGAGGGAAAGAAAUAUCAGGGAUUUUUGUUGAAUUGGAAUUCUCGGGUGCCAA	0.568
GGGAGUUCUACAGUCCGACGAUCAACUUGGCAACAGUUUUCCUAGAGUGACUCAGACACACCACAGUAACAACUCUCGCUGCAAUUUUAUUUUAAUUUGAGAAAUAAAGAUUUCCUCCAAGCCACAUGAGGACUGGAAUUCUCGGGUGCCAA	1.15
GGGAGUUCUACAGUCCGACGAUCUACCACUGGCGCCUAUGCGAUCACUUCAUUUUUAGUUUGAGUUGCACCAGAAGCUGCCGUAGAAAGCCAUGCGCUACUGCUUACCUCCUCCACUCCCCCUGCCUGCCCCCUGGAAUUCUCGGGUGCCAA	0.982
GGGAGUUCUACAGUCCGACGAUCUGUUUCACAGAAUACCAGUUCAGUUUGAUUUGGAAAAAGAUGCCAAACCAAAUUUAUAUGUAGUCUAUAAUCUAAGGGCAUUCUUGAAACUAUUGCCCACAUCCCAUUUUUGGAAUUCUCGGGUGCCAA	0.401

Repeated from above (sample 1):
Molecule	lacZ reporter activity
ASLPTSEEDLCPICYAHPISAVFQPCGHKSCKACINQHLMNNKDCFFCKTTIVSVEDWE (RNF123 RING domain (UniProt Q5XPI4))	0
B8 (NEURL1 RING domain)	0
B5 (RC3H1 RING domain)	0
B6 (TRIM4 RING domain)	0
B2 (MKRN1 RING domain)	0
QVDKAVFHMQSVKCLKCQEQKRAVLPCQHAALCELCAEGSECPICQPGRAHTLQS (UNK RING domain (UniProt Q9C0B0))	0
B4 (RNF111 RING domain)	0
